{"data": "Published values collected from several papers", "B1": "colicin E1 fragment 1–100; chain METAVAYYKDGVPYDDKGQVIITLLNGTPDGSGSGGGGGKGGSKSESSAAIHATAKWSTAQLKKTQAEQAARAKAAAEAQAKAKANRDALTQRLKDIVNE", "note": "Each line is one published result; not all experiments were run side by side. ± marks the error that the study gave."}
{"Molecule": "melittin", "test": "membrane partitioning, CD van't Hoff analysis", "test system": "POPC/POPG LUVs 50:50%", "conditions": "concentration not given, 5 to 60 °C", "endpoint": "heat capacity change", "value": "-0.33 kcal/mol/K"}
{"Molecule": "COc1cccc2c1C(=O)c1c(O)c3c(c(O)c1C2=O)C[C@@](O)(C(=O)CO)C[C@@H]3O[C@H]1C[C@H](NC(=O)[C@@H]2CCCN2C(=O)CNC(=O)[C@H](CC(C)C)NC(=O)[C@H](C)NC(=O)CP(=O)(O)O)[C@H](O)[C@H](C)O1", "test system": "mouse, E0771 tumour-bearing, plasma", "conditions": "intravenous, 92 µmol/kg", "endpoint": "AUC", "value": "156 µM·h"}
{"Molecule": "CCN1C(=CC=CC=CC2=[N+](CCCCCC(=O)NCCCC[C@H](NC(=O)CN3CCN(CC(=O)O)CCN(CC(=O)O)CCN(CC(=O)O)CC3)C(=O)NCC(=O)NCC(=O)N[C@@H](Cc3ccc(O)cc3)C(=O)NCC(=O)N[C@H]3CSSC[C@@H]4NC(=O)CNC(=O)[C@H](C)NC(=O)[C@H](CC(C)C)NC(=O)[C@@H]5CSSC[C@@H](C(=O)NCC(N)=O)NC(=O)[C@H](Cc6ccccc6)NC(=O)CNC(=O)[C@H](CC(N)=O)NC(=O)[C@@H]6CCCN6C(=O)CNC(=O)[C@H](CSSC[C@H](NC(=O)[C@H](CO)NC(=O)[C@H]([C@@H](C)O)NC(=O)[C@@H]6CCCN6C(=O)[C@H](C)NC(=O)[C@H](Cc6c[nH]c7ccccc67)NC(=O)[C@H](CC(=O)O)NC(=O)CNC(=O)[C@H](CCCNC(=N)N)NC(=O)CNC(=O)[C@H](CCC(N)=O)NC(=O)[C@@H]6CCCN6C3=O)C(=O)N[C@@H](CO)C(=O)N[C@@H](CCC(N)=O)C(=O)N[C@@H](CC(=O)O)C(=O)N[C@@H](CO)C(=O)N[C@@H](CC(=O)O)C(=O)N5)NC(=O)[C@H](C(C)C)NC4=O)c3ccc4c(S(=O)(=O)[O-])cc(S(=O)(=O)O)cc4c3C2(C)C)C(C)(C)c2c1ccc1c(S(=O)(=O)O)cc(S(=O)(=O)O)cc21 (single isomer, unassigned) [copper-64 labelled]", "test system": "mouse, blood, tumour, liver, kidney", "conditions": "dose not given, 1 h", "how to read": "baseline: total including insoluble pellet", "endpoint": "radioactivity in soluble extract", "value": "50 to 80%"}
{"Molecule": "Cc1ccccc1NC(=O)Nc1ccc(CC(=O)N[C@@H](CCCCNC(=O)/C=C/c2cccnc2)C(=O)N[C@@H](CCCC(=O)O)C(=O)NC2(C(=O)NCCOCCOCCOCCOCC(=O)N[C@@H](CCCCNC(=S)Nc3ccc(C[C@H]4CN(CC(=O)O)CCN(CC(=O)O)CCN4CC(=O)O)cc3)C(N)=O)CCCCC2)cc1 [fluorine-18 labelled]", "test system": "female C57BL/6 mice, B16-F10 tumour, bone", "conditions": "intravenous, 0.5 h", "endpoint": "tissue uptake", "value": "4.47 ± 0.37 %ID/g"}
{"Molecule": "COc1cccc2c1C(=O)c1c(O)c3c(c(O)c1C2=O)C[C@@](O)(C(=O)CO)C[C@@H]3O[C@H]1C[C@H](NC(=O)CCC(=O)NCCOCCOCCOCC(=O)N[C@H]2CSSC[C@@H](C(=O)O)NC(=O)[C@H](C(C)C)NC(=O)[C@H](CO)NC(=O)CNC(=O)CNC(=O)[C@H](CCCNC(=N)N)NC(=O)[C@@H]3CCCN3C2=O)[C@H](O)[C@H](C)O1", "test": "shake flask", "test system": "n-octanol/PBS", "conditions": "2.0 µM, pH 7.4", "endpoint": "distribution coefficient", "value": 0.9}
{"Molecule": "COc1cccc2c1C(=O)c1c(O)c3c(c(O)c1C2=O)C[C@@](O)(C(=O)CO)C[C@@H]3O[C@H]1C[C@H](NC(=O)[C@H](CC(C)C)NC(=O)[C@H](C)NC(=O)[C@H](CC(C)C)NC(=O)CCNC(=O)CCC(=O)O)[C@H](O)[C@H](C)O1", "test system": "mouse, E0771 tumour-bearing, kidney", "conditions": "intravenous, 92 µmol/kg", "endpoint": "Tmax", "value": "15 min"}
{"Molecule": "B1 (colicin E1 fragment 1–100)", "test": "far-UV CD", "test system": "peptide, 50 mM sodium phosphate", "endpoint": "helical content", "value": "25 ± 3%"}
{"Molecule": "CC(=O)N(O)CCCCCNC(=O)CCC(=O)N(O)CCCCCNC(=O)CCC(=O)N(O)CCCCCNC(=S)Nc1ccc(NC(=S)NCCOCCOCCOCCOCCC(=O)N[C@@H](CCC(=O)NCCOCCOCCOCCOCCC(=O)NCCCC[C@@H]2NC(=O)[C@@H](Cc3ccccc3)NC(=O)[C@H](CC(=O)O)NC(=O)CNC(=O)[C@H](CCCNC(=N)N)NC2=O)C(=O)NCCOCCOCCOCCOCCC(=O)NCCCC[C@@H]2NC(=O)[C@@H](Cc3ccccc3)NC(=O)[C@H](CC(=O)O)NC(=O)CNC(=O)[C@H](CCCNC(=N)N)NC2=O)cc1 [zirconium-89 labelled]", "test system": "athymic nude mice female tumour-bearing, spleen", "conditions": "intravenous, 100 µCi, 4 h", "endpoint": "tissue uptake", "value": "3.76 ± 0.31 %ID/g"}
{"Molecule": "CC(C)C[C@@H]1NC(=O)[C@@H]2CSSC[C@@H](C(=O)NCC(N)=O)NC(=O)[C@H](Cc3ccccc3)NC(=O)CNC(=O)[C@H](CC(N)=O)NC(=O)[C@@H]3CCCN3C(=O)CNC(=O)[C@@H]3CSSC[C@H](NC(=O)[C@H]([C@@H](C)O)NC(=O)[C@H](CC(C)C)NC(=O)[C@@H]4CCCN4C(=O)[C@@H]4CCCN4C(=O)[C@H](CC(N)=O)NC(=O)[C@H](CC(=O)O)NC(=O)CNC(=O)[C@H](CCCNC(=N)N)NC(=O)[C@@H]4CCCN4C(=O)[C@H](CCCNC(=N)N)NC(=O)[C@@H]4CCCN4C(=O)[C@@H](NC(=O)CNC(=O)CN4CCN(CC(=O)O)CCN(CC(=O)O)CCN(CC(=O)O)CC4)CSSC[C@H](NC(=O)CNC(=O)[C@H](C)NC1=O)C(=O)N[C@@H](C(C)C)C(=O)N3)C(=O)N[C@@H](CO)C(=O)N[C@@H](CCC(N)=O)C(=O)N[C@@H](CC(=O)O)C(=O)N[C@@H](CO)C(=O)N[C@@H](CC(=O)O)C(=O)N2 [copper-64 labelled]", "test": "PET", "test system": "mouse, transgenic lung tumour model, lung tumour", "conditions": "intravenous, 60 min", "endpoint": "tumour uptake", "value": "2.36 %ID/g"}
{"Molecule": "CC(C)[C@H](NC(=O)[C@@H](NC(=O)CCOCCOCCNC(=O)CCCc1cn(CC(O)CN2CCN(CC(=O)O)CCN(CC(=O)O)CCN(CC(=O)O)CC2)nn1)[C@@H](C)O)C(=O)N[C@@H](CCCNC(=N)N)C(=O)N[C@H](C(=O)N[C@@H](CO)C(=O)N[C@@H](C)C(=O)N[C@@H](CC(=O)O)C(=O)O)[C@@H](C)O (some centres unmarked)", "test": "quantitative T1 mapping", "test system": "athymic nude mouse, male, PC-3 xenograft, tumour", "conditions": "concentration not given, 30 min post-injection", "endpoint": "tumour concentration", "value": "46.7 ± 6.2 µM"}
{"Molecule": "N=C(N)NCCC[C@@H]1NC(=O)[C@H](CCCCNC(=O)[C@H](CC(=O)O)NC(=O)[C@H](CC(=O)O)NC(=O)[C@H](CC(=O)O)NC(=O)CC[C@H](NC(=O)CCOCCOCCOCCOCCNC(=O)c2ccc(NN)nc2)C(=O)N[C@@H](CC(=O)O)C(=O)N[C@@H](CC(=O)O)C(=O)N[C@@H](CC(=O)O)C(=O)NCCCC[C@@H]2NC(=O)[C@@H](Cc3ccccc3)NC(=O)[C@H](CC(=O)O)NC(=O)CNC(=O)[C@H](CCCNC(=N)N)NC2=O)NC(=O)[C@@H](Cc2ccccc2)NC(=O)[C@H](CC(=O)O)NC(=O)CNC1=O [technetium-99m labelled]", "test": "γ-counting", "test system": "female athymic nude mice, U-87 MG xenograft, intestine", "conditions": "intravenous, 0.5 h", "endpoint": "tissue uptake", "value": "6.58 ± 0.88 %ID/g"}
{"Molecule": "CSCC[C@H](NC(=O)[C@H](CC(C)C)NC(=O)[C@H](Cc1cnc[nH]1)NC(=O)CNC(=O)[C@@H](NC(=O)[C@H](C)NC(=O)[C@H](Cc1c[nH]c2ccccc12)NC(=O)[C@H](CCC(N)=O)NC(=O)c1ccc(NC(=O)CN2CCN(CC(=O)O)CCN(CC(=O)O)CCN(CC(=O)O)CC2)cc1)C(C)C)C(N)=O", "test system": "ICR SCID mouse (PC-3 tumour), urine and bladder contents", "conditions": "intravenous, 185 kBq, 4 h", "endpoint": "excreted dose", "value": "81.4 ± 2.85%"}
{"Molecule": "N=C(N)NCCC[C@@H]1NC(=O)[C@H](CCCCNC(=O)CNC(=O)CNC(=O)CNC(=O)CC[C@H](NC(=O)CCOCCOCCOCCOCCNC(=O)c2ccc(NN)nc2)C(=O)NCC(=O)NCC(=O)NCC(=O)NCCCC[C@@H]2NC(=O)[C@@H](Cc3ccccc3)NC(=O)[C@H](CC(=O)O)NC(=O)CNC(=O)[C@H](CCCNC(=N)N)NC2=O)NC(=O)[C@@H](Cc2ccccc2)NC(=O)[C@H](CC(=O)O)NC(=O)CNC1=O [technetium-99m labelled]", "test": "γ-counting", "test system": "female athymic nude mice, U-87 MG xenograft, heart", "conditions": "intravenous, 0.5 h", "endpoint": "tissue uptake", "value": "1.79 ± 0.11 %ID/g"}
{"Molecule": "CC(C)C[C@@H]1NC(=O)[C@@H]2CSSC[C@@H](C(=O)NCC(N)=O)NC(=O)[C@H](Cc3ccccc3)NC(=O)CNC(=O)[C@H](CC(N)=O)NC(=O)[C@@H]3CCCN3C(=O)CNC(=O)[C@@H]3CSSC[C@H](NC(=O)[C@H](CO)NC(=O)[C@H](CO)NC(=O)[C@H](C)NC(=O)[C@@H]4CCCN4C(=O)[C@H](CO)NC(=O)[C@H](CC(=O)O)NC(=O)CNC(=O)[C@H](CCCNC(=N)N)NC(=O)CNC(=O)[C@H]([C@@H](C)O)NC(=O)[C@H](C(C)C)NC(=O)[C@@H](NC(=O)CNC(=O)CN4CCN(CC(=O)O)CCN(CC(=O)O)CCN(CC(=O)O)CC4)CSSC[C@H](NC(=O)CNC(=O)[C@H](C)NC1=O)C(=O)N[C@@H](C(C)C)C(=O)N3)C(=O)N[C@@H](CO)C(=O)N[C@@H](CCC(N)=O)C(=O)N[C@@H](CC(=O)O)C(=O)N[C@@H](CO)C(=O)N[C@@H](CC(=O)O)C(=O)N2 [copper-64 labelled]", "test": "64Cu microPET", "test system": "female nude mice, U-87 MG xenograft, tumour", "conditions": "intravenous, 1 h", "endpoint": "tissue uptake", "value": "1.48 ± 0.53 %ID/g"}
{"note": "Excerpt of the above:"}
{"Molecule": "N=C(N)NCCC[C@@H]1NC(=O)[C@H](CCCCNC(=O)CNC(=O)CNC(=O)CNC(=O)CC[C@H](NC(=O)CCOCCOCCOCCOCCNC(=O)c2ccc(NN)nc2)C(=O)NCC(=O)NCC(=O)NCC(=O)NCCCC[C@@H]2NC(=O)[C@@H](Cc3ccccc3)NC(=O)[C@H](CC(=O)O)NC(=O)CNC(=O)[C@H](CCCNC(=N)N)NC2=O)NC(=O)[C@@H](Cc2ccccc2)NC(=O)[C@H](CC(=O)O)NC(=O)CNC1=O [technetium-99m labelled]", "test": "γ-counting", "test system": "female athymic nude mice, U-87 MG xenograft, heart", "conditions": "intravenous, 0.5 h", "endpoint": "tissue uptake", "value": "1.79 ± 0.11 %ID/g"}
{"Molecule": "COc1cccc2c1C(=O)c1c(O)c3c(c(O)c1C2=O)C[C@@](O)(C(=O)CO)C[C@@H]3O[C@H]1C[C@H](NC(=O)CCC(=O)NCCOCCOCCOCC(=O)N[C@H]2CSSC[C@@H](C(=O)O)NC(=O)[C@H](C(C)C)NC(=O)[C@H](CO)NC(=O)CNC(=O)CNC(=O)[C@H](CCCNC(=N)N)NC(=O)[C@@H]3CCCN3C2=O)[C@H](O)[C@H](C)O1", "test": "shake flask", "test system": "n-octanol/PBS", "conditions": "2.0 µM, pH 7.4", "endpoint": "distribution coefficient", "value": 0.9}
